Published values pooled from the literature.
Every numbered part comes from another study and shows a few of its results, in no order. Positions count from the first letter of the parent shown.

Sample 1
Target: RNA binding protein fox-1 homolog 2, RRM domain, GST-SBP tag (RBFOX2, Homo sapiens, UniProt O43251-10, residues 100-194)
Method: RNA Bind-n-Seq
Molecule type: RNA
Sample: in vitro
Concentration: 365 nM
Setting: natural RNA segment, single round, ends assumed
Relative to: no-protein control
Reading: higher = stronger binding
Measurement: RBNS enrichment (R)
Construct (chain): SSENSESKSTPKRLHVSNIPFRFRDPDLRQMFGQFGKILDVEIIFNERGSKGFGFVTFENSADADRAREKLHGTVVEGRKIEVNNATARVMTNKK
Oligonucleotide = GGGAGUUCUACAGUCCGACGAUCUAAUGAUCUGCAAGUCCCGGAGAGCAACAGCACAGCUCUGCCUGACGCUCUCAUUAAAAUCUAUGCAGCCAAGCUCGGCACUUUGUAGCAGCCGGCCUUGCGAAGCCUCCUGGAAUUCUCGGGUGCCAA; result = 0.308
Oligonucleotide = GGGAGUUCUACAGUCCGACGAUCGGCUGUUGACUGCGUAUGCCAAAAAGGGACAGGAGGCAUGGGAUAGCAGGUCUGGUGACACAGCUAGGGUCUUCCUAGCAGCUCCUCCUCCUCCCUCCCAAGGCCCCCAGUGGAAUUCUCGGGUGCCAA; result = 0.664
Oligonucleotide = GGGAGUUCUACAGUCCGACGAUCUAUCACUUUUUCAGCUGAUAUAUUCAUUUUAAUGGCUUUUUUGAAAGUUCCUUUUUCAUGAACACACCCGAGAAAUCUUAAAUAGACACUUUGCAAUAUUUAAGAACCUAUGGAAUUCUCGGGUGCCAA; result = 0.545
Oligonucleotide = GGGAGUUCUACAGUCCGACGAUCUGGGCAGCCUGAGCUCCCUCGGGCUCGCCUGCCAGCCUGGAGUUCUUCCUGUGCUCCUUGAUCACCUGAGCUGCCUCAGAUUCCAUUUGGUCCUCUCCUUCCUGGAAGGCUGGAAUUCUCGGGUGCCAA; result = 0.223
Oligonucleotide = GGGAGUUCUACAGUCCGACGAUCUUCCUCCAUGUGGAAAUGAGGAGAGAGGAAAGUGGAUUGCAAACCAAAAUGUGAGUCAGUGUGAUGAAGCAGUGGCUCUGUCAUCUCGGCCUUUAUCCAAUAACAAACCAUGGAAUUCUCGGGUGCCAA; result = 0.309
Oligonucleotide = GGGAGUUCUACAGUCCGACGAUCUUAAUGUUUGUGGCUUUCUCUCCAGCCUCUCUUAGGAGGGGUAAUGGUGGAGUUGGCAUCUUGUAACUCUCCUUUCUCCUUUCUUCCCCUUUCUCUGCCCGCCUUUCCCAUGGAAUUCUCGGGUGCCAA; result = 0.537
Oligonucleotide = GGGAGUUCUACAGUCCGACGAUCGGUCUUCAUGAAUGUUUCCUGAGUAAAGGAAGGAGACCAGCAGCUAACCUUAGUUAGAGCCUACCUUUUGCAGUUUCUAAAUUGCUAUUAUAGUGUACAGUUCAAUUAGUUGGAAUUCUCGGGUGCCAA; result = 17.8
Oligonucleotide = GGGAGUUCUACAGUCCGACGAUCAAAAAUCAUGUUAUUUUUUUUUAAGACACACACAAAAAGAUACUUAAAGACCAAAAACUGUGCUGGGAAGAUAUGCCCCACCUAUCUUUGGUACAUGGUAGGUGUUGUGAUGGAAUUCUCGGGUGCCAA; result = 0.71

Sample 2
Target: CCNB3, cyclin fold, Cln2 fusion (human)
Method: yeast growth competition, sequencing
Sample: yeast
Setting: weak parent motif
Relative to: not given
Reading: higher = stronger binding
Measurement: normalised enrichment score
Starting sequence: CUX1 docking peptide (human); SRIRRELFIEEIQ
Variant = SRIRAELFIEEIQ [R5A]; result = -0.193
Variant = SRIRAEAFIEEIQ [R5A L7A]; result = -0.118
Variant = SRIRRELFIEEIA [Q13A]; result = 0.11
Variant = SRARRELFIEEIQ [I3A]; result = 0.243
Variant = SRIRRELLIEEIQ [F8L]; result = 0.131
Variant = SRIRRELFIEAIQ [E11A]; result = 0.509
Variant = SRIRKELFIEEIQ [R5K]; result = 0.306
Variant = SAIRRELFIEEIQ [R2A]; result = 0.199
Variant = SRIRREAFIEEIQ [L7A]; result = -0.204
Variant = SRIRRELFIEEAQ [I12A]; result = -0.134

Sample 3
Target: RING finger protein unkempt homolog, zinc fingers 1-6, GST-SBP tag (UNK, Homo sapiens, UniProt Q9C0B0, residues 30-357)
Sequence of UniProt Q9C0B0 (30-357, looked up): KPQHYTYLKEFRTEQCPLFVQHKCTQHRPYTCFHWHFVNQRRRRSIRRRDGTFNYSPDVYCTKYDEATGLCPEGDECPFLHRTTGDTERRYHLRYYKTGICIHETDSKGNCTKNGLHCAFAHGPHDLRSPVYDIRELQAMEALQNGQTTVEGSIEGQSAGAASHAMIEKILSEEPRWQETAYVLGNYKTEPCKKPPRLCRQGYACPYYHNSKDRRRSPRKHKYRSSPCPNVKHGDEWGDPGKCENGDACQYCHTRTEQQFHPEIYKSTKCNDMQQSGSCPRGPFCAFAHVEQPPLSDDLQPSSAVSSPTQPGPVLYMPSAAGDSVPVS
Method: RNA Bind-n-Seq
Molecule type: RNA
Sample: in vitro
Concentration: not given
Setting: RNA with constant flanks, human-mouse chimeric sites, ends assumed
Relative to: input RNA pool
Reading: higher = stronger binding
Measurement: bound/input enrichment
Oligonucleotide = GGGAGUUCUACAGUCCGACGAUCAUGCAGUAUGAGACCAACAGCAUGGACUUCAAAGUUGGGGCAGAUGGGACAGUCUUCGCCACCCGGGAGCUGCAGGUCCCCUCCGAGCAGGUGGCGUUCACGGUGACUGCAUGGGACAGCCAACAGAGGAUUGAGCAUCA; result = 0.222 ratio
Oligonucleotide = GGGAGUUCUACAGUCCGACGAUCAAGGUGAUGACUAUGUUUGUCCAACGACAGGUAUUUUCGGAGAGCAAAGAUGAGAUUGCGUUAGUCCUCUAUGGCACAGAUGGCACUGAUAAUGCCCUUGCUGGCAAGGAUCAGUAUCAGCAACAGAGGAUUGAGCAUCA; result = 0.161 ratio
Oligonucleotide = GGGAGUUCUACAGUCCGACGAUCAAAUCAUGUGUGUCCAAUAUUGAAAGUGCUUUAUCUACACUCCAGUAUGUAAGCAGUAUAGUAGUUUCUUUAGAGAAUAGGUCAGCCAUUGUAAAGUAUAAUGCAAGCUUAGUCACUCCACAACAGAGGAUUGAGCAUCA; result = 4.95 ratio
Oligonucleotide = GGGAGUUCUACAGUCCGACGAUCACUCAGAGAUCCACCUCCCAAAGUGCUGGGAGUAAAGGUGUGGCCACCACACCUAACUUGAUGGAUAUAUAUUUUUUUUAAUAUGAAUCUUCCUGUUCUUCAUCCAGAGAAAGAUUUGUUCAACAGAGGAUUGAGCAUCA; result = 0.832 ratio
Oligonucleotide = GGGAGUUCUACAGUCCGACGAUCAACAGAUUGUCUUUAAGCAUUCCAAGCGAGAAUGCUGGGGUGAUCAUUGUUGCCCAUGUGCCUUCUGACUGAGCUUUUAAUUAAUUGCAUGUUACAUUGAUGUUCUUCUCCAGAAUUGUUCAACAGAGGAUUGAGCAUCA; result = 0.267 ratio
Oligonucleotide = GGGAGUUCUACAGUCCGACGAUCAGCGUUCAGGAAUUCAUGACCUUUACAAGUCAACUGAUUGUGGAGCGCUCGGGGAAAGGCAGCAGAGCUUCUGUCAAAGAACAAGAGUAUCUUUGCCAUGUCUACGUCCGGAGCGACAGUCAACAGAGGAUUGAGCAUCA; result = 0.0896 ratio
Oligonucleotide = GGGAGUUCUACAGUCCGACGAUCCAGGGCAUCAUCUCUCGUGCUGUUAGACACCUGUUCAAGAGUAUUGAAGAAAAAAAACACAUAGCAAUUAAAAACGGGCUGCCCCCUCCUGAAUUCAAAGUGAAUGCCCAGUUCCUAGAGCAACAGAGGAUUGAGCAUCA; result = 4.17 ratio
Oligonucleotide = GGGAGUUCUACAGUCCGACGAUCGUGUCCUGCUUUCAACUAUCACUGAGGAGGCAUCUCUACUGUUCUGUGAGCAUCAGGACUGUAGCGCUUGCCACCACCAUGAGAGUUCAGAAGCAGCCUUUCUGUGGAGGGUGGGAAUGACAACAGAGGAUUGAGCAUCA; result = 0.0755 ratio

Sample 4
Target: Fragile X messenger ribonucleoprotein 1, C-terminal low-complexity region (Fmr1, Mus musculus, UniProt P35922)
Method: RNA Bind-n-Seq
Molecule type: RNA
Sample: in vitro
Concentration: 200 nM
Setting: whole 134-nt RNA, ends assumed
With: 150 mM LiCl
Relative to: input library
Reading: higher = stronger binding
Measurement: log2 enrichment
Each molecule: 7-deaza-guanosine replaces G
Oligonucleotide = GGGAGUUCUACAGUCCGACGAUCCCUGUGCUACACAUCGUAUGUACCGAAUCGGGGUGGGGAAAAAAAGGGGUUUUUUUGGGGAAAGUAUUAUGUUACGCCGUUCGGAUCUGCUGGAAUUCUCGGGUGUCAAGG; result = -1.89
Oligonucleotide = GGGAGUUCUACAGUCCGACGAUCGUCCUGUGCUACACAUCGUAUGUACCGAAUCGGGGCCCCGGGGCCCCGGGGCCCCGGGGAAAGUAUUAUGUUACGCCGUUCGGAUCUGCAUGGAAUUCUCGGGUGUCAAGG; result = -1.87
Oligonucleotide = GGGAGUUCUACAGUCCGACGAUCGCAGGAAGUAAAAACAAAUGGAAAUGCUUCGGAUAGUGGCAGGGGUGGGGGUUGCUACGGAAAGGGUGGGAUGGGAGUGGGUAAAGAGUUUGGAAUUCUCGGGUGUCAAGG; result = 1.48
Oligonucleotide = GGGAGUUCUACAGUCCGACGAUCGUCCUGUGCUACACAUCGUAUGUACCGAAUCGGGUUUUUGGGUUUGGGAAAAAAAGGGAAAGUAUUAUGUUACGCCGUUCGGAUCUGCACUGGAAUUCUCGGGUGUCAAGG; result = -2.04
Oligonucleotide = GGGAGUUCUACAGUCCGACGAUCUGGGAGGUGGAUUUUGUUUAUUUUGUUAGCUCAUUUCCAGGGGUGGGAAUUUUUUUUUAAUAUGUGUCAUGAAUAAAGUUGUUUUUGAAAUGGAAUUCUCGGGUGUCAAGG; result = -0.0817
Oligonucleotide = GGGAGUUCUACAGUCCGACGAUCCAAGUCCUGUGCUACACAUCGUAUGUACCGAAUCGGAAAAGGAAAAGGGAAAAGGAAAGUAUUAUGUUACGCCGUUCGGAUCUGCACUUCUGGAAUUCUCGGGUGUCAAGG; result = -0.701
Oligonucleotide = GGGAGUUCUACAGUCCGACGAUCACCAUGCAGGUGGGCAUCUUUGGGGAGUGGGGCAAGGGGGGGAUAGGGAGGGGGGUAACACUUUGGGAACAGGUGGUCCCAGGUCGUUUCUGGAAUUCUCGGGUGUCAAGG; result = 1.35
Oligonucleotide = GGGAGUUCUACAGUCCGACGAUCUGGGAGGUGGUUUUUGUUUAUUUUUUUAGCUCAUUUCCAGGGGUGGGAAUUUUUUUUUAAUAUGUGUCAUGAAUAAAGUUGUUUUUGAAAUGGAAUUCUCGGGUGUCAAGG; result = 0.266

A few entries again (sample 4):
Oligonucleotide = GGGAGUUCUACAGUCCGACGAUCGCAGGAAGUAAAAACAAAUGGAAAUGCUUCGGAUAGUGGCAGGGGUGGGGGUUGCUACGGAAAGGGUGGGAUGGGAGUGGGUAAAGAGUUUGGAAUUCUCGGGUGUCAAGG; result = 1.48
Oligonucleotide = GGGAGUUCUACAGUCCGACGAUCGUCCUGUGCUACACAUCGUAUGUACCGAAUCGGGGCCCCGGGGCCCCGGGGCCCCGGGGAAAGUAUUAUGUUACGCCGUUCGGAUCUGCAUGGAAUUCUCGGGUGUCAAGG; result = -1.87
Oligonucleotide = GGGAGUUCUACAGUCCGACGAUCACCAUGCAGGUGGGCAUCUUUGGGGAGUGGGGCAAGGGGGGGAUAGGGAGGGGGGUAACACUUUGGGAACAGGUGGUCCCAGGUCGUUUCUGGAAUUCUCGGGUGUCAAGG; result = 1.35
Oligonucleotide = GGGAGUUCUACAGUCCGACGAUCGUCCUGUGCUACACAUCGUAUGUACCGAAUCGGGUUUUUGGGUUUGGGAAAAAAAGGGAAAGUAUUAUGUUACGCCGUUCGGAUCUGCACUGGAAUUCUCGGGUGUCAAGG; result = -2.04
